{"data": "Results of several laboratories", "note": "Numbered parts are unrelated; each lists some results of a single study."}
{"data": "Sample 1", "target": "Histone acetyltransferase KAT6A, winged helix 1, GST fusion (KAT6A, Homo sapiens, UniProt Q92794, residues 1-85)", "technique": "protein binding microarray", "form": "double-stranded DNA, one strand shown", "sample": "in vitro", "concentration": "not given", "notes": "8-mer, flanks averaged, mean of 2 arrays, mostly near background", "relative to": "not given", "direction": "higher = stronger binding", "Target sequence (chain)": "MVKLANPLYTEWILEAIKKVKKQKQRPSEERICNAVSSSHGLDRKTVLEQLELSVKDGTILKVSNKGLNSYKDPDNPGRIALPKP"}
{"Oligonucleotide": "CGACGACG", "E-score": 0.261}
{"Oligonucleotide": "ACAGCGGG", "E-score": 0.175}
{"Oligonucleotide": "CTCGCAAG", "E-score": -0.195}
{"Oligonucleotide": "ATCTTATG", "E-score": -0.0903}
{"Oligonucleotide": "CACGGGAA", "E-score": 0.296}
{"Oligonucleotide": "ATCCCGTA", "E-score": 0.268}
{"Oligonucleotide": "GAAACAAC", "E-score": -0.0803}
{"Oligonucleotide": "AGTGCCGA", "E-score": 0.132}
{"Oligonucleotide": "ATGAGCAT", "E-score": -0.267}
{"Oligonucleotide": "CTCTTCAA", "E-score": -0.1}
{"Oligonucleotide": "GGTCTCAC", "E-score": -0.105}
{"Oligonucleotide": "AGGTCTAG", "E-score": -0.123}
{"Oligonucleotide": "GTTTGATA", "E-score": -0.154}
{"Oligonucleotide": "GGCGGACA", "E-score": 0.245}
{"Oligonucleotide": "TCTAGAAA", "E-score": -0.0787}
{"Oligonucleotide": "GCGGTAGC", "E-score": 0.247}
{"Oligonucleotide": "CAACCACG", "E-score": 0.0139}
{"Oligonucleotide": "CACTTGGG", "E-score": -0.218}
{"Oligonucleotide": "CTGTTTCA", "E-score": -0.196}
{"data": "Sample 2", "target": "UBE2R2 UBC core domain (UniProt Q712K3)", "technique": "yeast two-hybrid", "sample": "yeast", "notes": "mostly zero background", "relative to": "not given", "direction": "higher = stronger interaction", "B1": "TRIM22 RING domain (UniProt Q8IYM9); chain VKVDIEKEVTCPICLELLTEPLSLDCGHSFCQACITAKIKESVIISRGESSCPVCQTRFQPGNLRP", "B2": "RNF122 RING domain (UniProt Q9H9V4); chain AKKLQLYGQTCAVCLEDFKGKDELGVLPCQHAFHRKCLVKWLEVRCVCPMCNKPIASPSEAT", "B3": "RNF2 RING domain (UniProt Q99496); chain SPRSLHSELMCPICLDMLKNTMTTKECLHRFCADCIITALRSGNKECPTCRKKLVSKRSLR", "B4": "RNF152 RING domain (UniProt Q8N8N0); chain ETLSQDSLLECQICFNYYSPRRRPKLLDCKHTCCSVCLQQMRTSQKDVRCPWCRGVTKLPPGFS", "B5": "TRIM26 RING domain (UniProt Q12899); chain PLRSLEEEVTCSICLDYLRDPVTIDCGHVFCRSCTTDVRPISGSRPVCPLCKKPFKKENIRP", "B6": "MYCBP2 RING domain (UniProt O75592); chain TSLKQDADDMCMICFTEALSAAPAIQLDCSHIFHLQCCRRVLENRWLGPRITFGFISCPICKNKINHIVLKD", "B7": "RNF187 RING domain (UniProt Q5TA31); chain ALPAGPAEAACALCQRAPREPVRADCGHRFCRACVVRFWAEEDGPFPCPECADDCWQRAVEP", "B8": "TRIM60 RING domain (UniProt Q495X7); chain ALVNLQEESSCPICLEYLKDPVTINCGHNFCRSCLSVSWKDLDDTFPCPVCRFCFPYKSFRR", "B9": "TRIM54 RING domain (UniProt Q9BYV2); chain SMDNLEKQLICPICLEMFSKPVVILPCQHNLCRKCANDVFQASNPLWQSRGSTTVSSGGRFRCPSCRHEVVLDRHGV", "B10": "RNF166 RING domain (UniProt Q96A37); chain GDSGLEAQYTCPICLEVYHRPVAIGSCGHTFCGECLQPCLQVPSPLCPLCRLPFDPKKVDK", "B11": "TRIM31 RING domain (UniProt Q9BZY9); chain FVNKLQEEVICPICLDILQKPVTIDCGHNFCLKCITQIGETSCGFFKCPLCKTSVRKNAIRF", "sequence of UniProt Q712K3 (whole entry, looked up)": "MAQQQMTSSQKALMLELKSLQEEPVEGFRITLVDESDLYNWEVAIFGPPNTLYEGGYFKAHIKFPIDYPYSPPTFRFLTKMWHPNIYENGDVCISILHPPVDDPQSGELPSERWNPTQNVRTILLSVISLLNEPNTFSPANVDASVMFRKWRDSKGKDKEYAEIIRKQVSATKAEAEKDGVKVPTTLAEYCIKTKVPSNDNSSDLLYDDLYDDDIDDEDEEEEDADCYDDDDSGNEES"}
{"Molecule": "MNDVLENELQCIICSEYFIEAVTLNCAHSFCSYCINEWMKRKIECPICRKDIKSKTYSL (RNF8 RING domain (UniProt O76064))", "lacZ reporter activity": 0}
{"Molecule": "B1 (TRIM22 RING domain)", "lacZ reporter activity": 0}
{"Molecule": "YCEMGSTFQLCKICAENDKDVKIEPCGHLMCTSCLTAWQESDGQGCPFCRCEIKGTEPII (CBLB RING domain (UniProt Q13191))", "lacZ reporter activity": 0}
{"Molecule": "B2 (RNF122 RING domain)", "lacZ reporter activity": 0}
{"Molecule": "B3 (RNF2 RING domain)", "lacZ reporter activity": 0}
{"Molecule": "LGTKLEAKYLCSACRNVLRRPFQAQCGHRYCSFCLASILSSGPQNCAACVHEGIYEEGIS (TRAF2 RING domain (UniProt Q12933))", "lacZ reporter activity": 0}
{"Molecule": "B4 (RNF152 RING domain)", "lacZ reporter activity": 0}
{"Molecule": "B5 (TRIM26 RING domain)", "lacZ reporter activity": 0}
{"Molecule": "B6 (MYCBP2 RING domain)", "lacZ reporter activity": 0}
{"Molecule": "AEADPLGRFTCPVCLEVYEKPVQVPCGHVFCSACLQECLKPKKPVCGVCRSALAPGVRAV (RNF114 RING domain (UniProt Q9Y508))", "lacZ reporter activity": 0}
{"Molecule": "B7 (RNF187 RING domain)", "lacZ reporter activity": 0}
{"Molecule": "B8 (TRIM60 RING domain)", "lacZ reporter activity": 0}
{"Molecule": "PEELAVNNDDCAICWDSMQAARKLPCGHLFHNSCLRSWLEQDTSCPTCRMSLNIADNNR (AMFR RING domain (UniProt Q9UKV5))", "lacZ reporter activity": 0}
{"Molecule": "B9 (TRIM54 RING domain)", "lacZ reporter activity": 0}
{"Molecule": "B10 (RNF166 RING domain)", "lacZ reporter activity": 0}
{"Molecule": "B11 (TRIM31 RING domain)", "lacZ reporter activity": 0}
{"data": "Sample 3", "target": "RNA binding protein fox-1 homolog 2, RRM domain, GST-SBP tag (RBFOX2, Homo sapiens, UniProt O43251-10, residues 100-194)", "technique": "RNA Bind-n-Seq", "form": "RNA", "sample": "in vitro", "concentration": "365 nM", "notes": "natural RNA segment, single round, ends assumed", "relative to": "no-protein control", "direction": "higher = stronger binding", "constant ends, left off below": "GGGAGUUCUACAGUCCGACGAUC … UGGAAUUCUCGGGUGCCAA", "Construct (chain)": "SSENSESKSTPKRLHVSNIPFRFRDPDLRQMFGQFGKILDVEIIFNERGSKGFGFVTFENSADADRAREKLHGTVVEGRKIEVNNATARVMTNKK"}
{"Oligonucleotide": "AAGUUACCAACUUAUGUAGGGGUGAAAUUUGGAUAGGCGGUAUGCUCAAAGCAGCCAGCAAUGAGUGCUCUGUUUUGAUCCUUCUUCUUAUUAUGGAAAGGAGUACAGGA", "RBNS enrichment (R)": 0.308}
{"Oligonucleotide": "CUAUUUGGAACAGUUCUUACACAUUUGCUGGGCCUGGCCUCUGAGAGGCCAUCUUCCACCCCCAGAAAGGUGCUAAUGGCACUGCAGAGGGCUCUCUAGGGGCCUCCCCG", "RBNS enrichment (R)": 0.21}
{"Oligonucleotide": "AGGACCUUGCCUCUCUGGAAUCUGUCAACCCAGUUUUGGGCUCCAGGUGGAUGGGUUGCUUUAUAAAUGUGCCUGGUGCAUGAGAAACUCUUGUUUCAGCUCUUGGCCUU", "RBNS enrichment (R)": 4.43}
{"Oligonucleotide": "GGAGCUGCCCCAGCUGAAGGGGGCUGUGUAUGUGUCUGAGGAGCUUAGUAAGACUCUGGUUCACACCGUGAGUGUCGCGGUCAUUGAUGGGACCAGGGCAGUCACCAGUG", "RBNS enrichment (R)": 0.568}
{"Oligonucleotide": "AGGGCUGCACACACAGGGCGGCUCUCUGUGCUGGUCCCUUCGUAGCUCCCCAGACCCGCUCUGUUCCGUUGCUGUUAGAACAGUAGACUACUGACCGCUAUAGAGCAGAU", "RBNS enrichment (R)": 0.234}
{"Oligonucleotide": "CCUUAAAGAGGGACAGGCUGAAGAGAGGGACAGGCACUCCAAACCUGUCUUGGGGCCACUUUCAGAGCCCCCAGCCCUGGGAACCACUCCCACCACAGGCAUAAGCUAUC", "RBNS enrichment (R)": 0.272}
{"Oligonucleotide": "CCUUCCAGACUUAAGAAUUUUAUGGCAUGGCCCAAUUGAUAUAAACAUUUAGAAGGAAAUGAAAAGCUAAAAUAGGAAGUAAUUAUUCCUCUAAAGAAACAUUUUGAGCA", "RBNS enrichment (R)": 4.16}
{"Oligonucleotide": "CCAUCCUCACACCCACUCAUCUCUGAGGAGCUAUGAACUGGUUUUGGUCCCUCUAAUGAUCCUCCAGCCUCAUCUAAUGCCCCCCAAAGACUGAUACAAGUAACCUCCCC", "RBNS enrichment (R)": 0.425}
{"Oligonucleotide": "GAGACUCGAGGGGCAUGGUGACAGUGCAGAGCCAGGGAACCAGAGUCCAGUAACUCCUGCCAACCAUGGACCCUCGACCUCCUGUGCUGUCCCUGUAUCCAGAGCUGGGC", "RBNS enrichment (R)": 0.291}
{"Oligonucleotide": "UUUGGAAGCUCAGUUCUUGAGUUGUCAGAGGGCCUCAUUGCCGUCCUCCUCUGAGAGCAGUGAUGCAGGCCAGGAGACAUCAUUUGAGAAUGCUGAUGCUUUUGUAAGGC", "RBNS enrichment (R)": 0.262}
{"Oligonucleotide": "CCUGGUCUCAGACCAUCGUCUCUGCACUGCGAAGGCAUUUGGUAGCCUCGCCACUGAGAUACUAACUAGACCUAGACUAGGAGCUUUAUCAGGUUCUAGGAGGUCCUUUA", "RBNS enrichment (R)": 0.221}
{"Oligonucleotide": "ACUGCCUGGAUGUGUUUGAUUUUUUAAAGCGUAGACAUAUAUUUAUGAAUGUGCAUUUCUUGACUUCACAGCAGCCACUUGACUAAUACCUUGUGUUCCGGGAAUAACAU", "RBNS enrichment (R)": 0.38}
{"data": "Sample 4", "target": "Interferon regulatory factor 5, full length, phosphomimetic (IRF5, Homo sapiens, UniProt Q13568-2, residues 1-514, K96S/S451D/S453D/S456D/S462D)", "technique": "protein-binding microarray", "form": "double-stranded DNA, one strand shown", "sample": "in vitro", "concentration": "250 nM", "notes": "60-bp whole probe", "with": "salmon DNA 0.4 mg/ml", "relative to": "random background probes", "direction": "higher = stronger binding", "constant ends, left off below": "GCCTAGCAC … GTCTTGATTCGCTTGACGCTGCTG"}
{"Oligonucleotide": "TTGTGTCTGGGCTTTTTCCCCGTGCTA", "log fluorescence [z-score]": -0.458}
{"Oligonucleotide": "TCACCTACAGGTTCTCTGACTGTGCTA", "log fluorescence [z-score]": -0.118}
{"Oligonucleotide": "TTAGATTGCGGGTTTCGATTAGTGCTA", "log fluorescence [z-score]": 6.6}
{"Oligonucleotide": "TCTGATTTTGCTTTCATTTAGTGCTAG", "log fluorescence [z-score]": 4.31}
{"Oligonucleotide": "TCATATTTAAGGCATCTGACTGTGCTA", "log fluorescence [z-score]": 0.153}
{"Oligonucleotide": "GACGATCTCAGACTGGTGACGTGCTAG", "log fluorescence [z-score]": -0.358}
{"Oligonucleotide": "GACGTTTTCGGGACTGGAGACGTGCTA", "log fluorescence [z-score]": 2.99}
{"Oligonucleotide": "TCTTTTCTGTTGTCTGTGTTTGTGCTA", "log fluorescence [z-score]": 3.14}
{"Oligonucleotide": "TCATTTTTTTCTATATGACTGTGCTAG", "log fluorescence [z-score]": 2.11}
{"Oligonucleotide": "TCAGAATTGAAAATTAGTACTGTGCTA", "log fluorescence [z-score]": 0.481}
{"Oligonucleotide": "GACGGTTTCGGTTCGGGGACGTGCTAG", "log fluorescence [z-score]": 9.33}
{"Oligonucleotide": "GACGGTATCGACTATCGGGGCGTGCTA", "log fluorescence [z-score]": 3.18}
{"Oligonucleotide": "GACGGTTTCCTTTCCTTGACGTGCTAG", "log fluorescence [z-score]": 1.08}
{"Oligonucleotide": "CTTGCTCTTGTTTTCACAGGGTGCTAG", "log fluorescence [z-score]": 0.692}
{"Oligonucleotide": "GAAGGACTGCTTTTCCTGACGTGCTAG", "log fluorescence [z-score]": -0.159}
{"Oligonucleotide": "TCATAAACTAGAAACTGAACTGTGCTA", "log fluorescence [z-score]": 0.692}
{"Oligonucleotide": "GACGAACTGAGAATGGAGACGTGCTAG", "log fluorescence [z-score]": -0.333}
{"Oligonucleotide": "GACGGTATCGGGCTTCGGGACGTGCTA", "log fluorescence [z-score]": 1.02}
{"Oligonucleotide": "GACGGTATCGGGACTGGAGACGTGCTA", "log fluorescence [z-score]": 1.13}
{"Oligonucleotide": "TTAGGTCTCGGTTGCGGTTAGTGCTAG", "log fluorescence [z-score]": 1.16}
{"note": "For quick reference, copied from above (sample 2):"}
{"Molecule": "B4 (RNF152 RING domain)", "lacZ reporter activity": 0}
{"Molecule": "B5 (TRIM26 RING domain)", "lacZ reporter activity": 0}
{"Molecule": "B6 (MYCBP2 RING domain)", "lacZ reporter activity": 0}
{"Molecule": "AEADPLGRFTCPVCLEVYEKPVQVPCGHVFCSACLQECLKPKKPVCGVCRSALAPGVRAV (RNF114 RING domain (UniProt Q9Y508))", "lacZ reporter activity": 0}
{"Molecule": "B7 (RNF187 RING domain)", "lacZ reporter activity": 0}
